{"data": "Measurements from different studies"}
{"Compound": "Cc1nccn1-c1ccc(Sc2cccc(C3(C(N)=O)CCOCC3)c2)cc1", "organism": "human coronavirus OC43", "assay": "virus-induced cell killing", "test system": "MRC-5", "setting": "screen", "endpoint": "maximum inhibition", "value": "10.8%"}
{"Compound": "CC(C)[C@H](NC(=O)[C@H](CCCNC(=N)N)NC(=O)[C@H](Cc1c[nH]c2ccccc12)NC(=O)[C@H](CCCNC(=N)N)NC(=O)[C@H](Cc1c[nH]c2ccccc12)NC(=O)[C@H](Cc1c[nH]c2ccccc12)NC(=O)[C@H](Cc1c[nH]c2ccccc12)NC(=O)[C@H](CCCNC(=N)N)NC(=O)[C@H](Cc1c[nH]c2ccccc12)NC(=O)[C@@H](N)CCCNC(=N)N)C(N)=O", "organism": "Candida albicans", "assay": "broth microdilution", "test system": "CGMCC 2.209, RPMI 1640-MOPS", "setting": "48 h, 30 °C, with: KCl 4.5 mM", "endpoint": "MIC", "value": "16 µM"}
{"Compound": "CC1(C)SC2C(NC(=O)C(NC(=O)C3=C(O)CN(c4ccccc4)C3=O)c3ccccc3)C(=O)N2C1C(=O)O (stereo not shown)", "organism": "Escherichia coli", "assay": "broth microdilution", "test system": "Keio mutant JW5195-1", "setting": "18 h", "endpoint": "MIC", "value": "25 µg/mL"}
{"Compound": "O=c1ccc2nc3ccc(O)cc3oc-2c1", "organism": "Stenotrophomonas maltophilia", "setting": "24 h", "endpoint": "MIC", "value": "> 32 µg/mL"}
{"Compound": "CC(C)C[C@@H](NC(=O)[C@H](C)NC(=O)CNC(=O)[C@@H](NC=O)C(C)C)C(=O)N[C@@H](C)C(=O)N[C@@H](C(=O)N[C@H](C(=O)N[C@@H](C(=O)N[C@@H](Cc1c[nH]c2ccccc12)C(=O)N[C@H](CC(C)C)C(=O)N[C@@H](Cc1cccc2[nH]ccc12)C(=O)N[C@H](CC(C)C)C(=O)N[C@@H](Cc1c[nH]c2ccccc12)C(=O)N[C@H](CC(C)C)C(=O)N[C@@H](Cc1c[nH]c2ccccc12)C(=O)NCCO)C(C)C)C(C)C)C(C)C", "organism": "Streptococcus pyogenes", "assay": "broth microdilution", "test system": "SSI-9", "endpoint": "MIC", "value": "0.017 µM"}
{"Compound": "C[C@H](NC(=O)[C@H](CCCNC(=N)N)NC(=O)[C@H](Cc1c[nH]c2ccccc12)NC(=O)[C@H](CCCNC(=N)N)NC(=O)[C@H](Cc1c[nH]c2ccccc12)NC(=O)[C@H](Cc1c[nH]c2ccccc12)NC(=O)[C@H](Cc1c[nH]c2ccccc12)NC(=O)[C@H](CCCNC(=N)N)NC(=O)[C@H](Cc1c[nH]c2ccccc12)NC(=O)[C@H](CCCNC(=N)N)NC(=O)CN)C(N)=O", "organism": "Candida albicans", "assay": "broth microdilution", "test system": "SP3903, RPMI 1640-MOPS", "setting": "48 h, 30 °C", "endpoint": "MIC", "value": "8 µM"}
{"Compound": "CC(C)CC1NC(=O)C(C(=O)NC(C(=O)NC2C(=O)N3C2SC(C)(C)C3C(=O)O)c2ccccc2)=C1O (stereo not shown)", "organism": "Escherichia coli", "assay": "broth microdilution", "test system": "ATCC 35218, low-level TEM-1", "setting": "no clavulanic acid", "endpoint": "MIC", "value": "> 200 µg/mL"}
{"Compound": "N=C(N)c1ccc(OCc2cccc(COc3ccc(C(=N)N)cc3)c2)cc1", "organism": "Escherichia coli", "test system": "BW25113 mcr-1", "setting": "in combination, checkerboard, with: rifampicin", "endpoint": "MIC", "value": "25 µg/mL"}
{"Compound": "CC1(C)SC2C(NC(=O)C(NC(=O)C3=C(O)C(Cc4ccccc4)NC3=O)c3ccccc3)C(=O)N2C1C(=O)O (stereo not shown)", "organism": "Escherichia coli", "assay": "broth microdilution", "test system": "isolate IU 356 A, KPC-3, VIM-1, TEM", "setting": "no clavulanic acid", "endpoint": "MIC", "value": "> 200 µg/mL"}
{"Compound": "C[S+]([O-])c1ccc(-c2nc(-c3ccncc3)c(-c3ccc(F)cc3)[nH]2)cc1 (stereo not shown)", "organism": "human coronavirus OC43", "assay": "virus-induced cell killing", "test system": "MRC-5", "setting": "screen", "endpoint": "maximum inhibition", "value": "14.8%"}
{"Compound": "CC(C)C[C@H](NC(=O)[C@H](C)NC(=O)[C@@H](NC(=O)[C@H](C)NC(=O)[C@H](CC(C)C)NC(=O)[C@H](Cc1c[nH]c2ccccc12)NC(=O)[C@@H]1CCCN1C(=O)[C@H](C)N)C(C)C)C(=O)N[C@@H](CS)C(=O)N1CCC[C@H]1C(=O)NCC(=O)O", "organism": "Staphylococcus cohnii", "assay": "broth microdilution", "test system": "L5", "setting": "18 h, 37 °C", "endpoint": "MIC", "value": "> 512 µM"}
{"Compound": "CC[C@H](C)[C@H](NC(=O)[C@H](CCCNC(=N)N)NC(=O)[C@H](Cc1c[nH]c2ccccc12)NC(=O)[C@H](CCCNC(=N)N)NC(=O)[C@H](Cc1c[nH]c2ccccc12)NC(=O)[C@H](Cc1c[nH]c2ccccc12)NC(=O)[C@H](Cc1c[nH]c2ccccc12)NC(=O)[C@H](CCCNC(=N)N)NC(=O)[C@H](Cc1c[nH]c2ccccc12)NC(=O)[C@@H](N)CCCNC(=N)N)C(N)=O", "organism": "Candida albicans", "assay": "broth microdilution", "test system": "CGMCC 2.209, RPMI 1640-MOPS", "setting": "48 h, 30 °C, with: NH4Cl 6 µM", "endpoint": "MIC", "value": "16 µM"}
{"Compound": "N=C(N)NCCC[C@H](NC(=O)CCCCCNC(=O)[C@H](CCCNC(=N)N)NC(=O)[C@H](CCCNC(=N)N)NC(=O)CCCCCNC(=O)[C@H](CCCNC(=N)N)NC(=O)[C@H](CCCNC(=N)N)NC(=O)CCCCCNC(=O)[C@H](CCCNC(=N)N)NC(=O)[C@H](CCCNC(=N)N)NC(=O)CCCCCNC(=O)[C@@H](N)CCCNC(=N)N)C(=O)NCCCCCC(=O)NCCC(=O)O", "organism": "Escherichia coli", "assay": "broth microdilution", "test system": "ATCC 25922, Mueller-Hinton broth", "setting": "16 to 18 h, 37 °C", "endpoint": "MIC", "value": "96 µM"}
{"Compound": "CC[C@H](C)[C@H](NC(=O)[C@H](CCCNC(=N)N)NC(=O)[C@H](Cc1c[nH]c2ccccc12)NC(=O)[C@H](CCCNC(=N)N)NC(=O)[C@H](Cc1c[nH]c2ccccc12)NC(=O)[C@H](Cc1c[nH]c2ccccc12)NC(=O)[C@H](Cc1c[nH]c2ccccc12)NC(=O)[C@H](CCCNC(=N)N)NC(=O)[C@H](Cc1c[nH]c2ccccc12)NC(=O)[C@H](CCCNC(=N)N)NC(=O)CN)C(N)=O", "organism": "Candida albicans", "assay": "broth microdilution", "test system": "56452, RPMI 1640-MOPS", "setting": "48 h, 30 °C", "endpoint": "MIC", "value": "8 µM"}
{"Compound": "CC[C@H](C)[C@H](NC(=O)[C@@H]1CCCN1C(=O)[C@H](CC(N)=O)NC(=O)[C@H](CC(N)=O)NC(=O)[C@H](CC(C)C)NC(=O)CNC(=O)[C@@H]1CCCN1C(=O)[C@H](CC(C)C)NC(=O)[C@H](CCCNC(=N)N)NC(=O)[C@@H]1CCCN1C(=O)[C@H](CCCNC(=N)N)NC(=O)CNC(=O)[C@@H]1CCCN1C(=O)[C@@H]1CCCN1C(=O)[C@H](CCCNC(=N)N)NC(=O)CNC(=O)[C@H](CCCNC(=N)N)NC(=O)[C@H](CO)NC(=O)[C@H](CCCNC(=N)N)NC(=O)CNC(=O)[C@H](CCCNC(=N)N)NC(=O)[C@H](CO)NC(=O)[C@H](CCCNC(=N)N)NC(=O)CNC(=O)[C@H](C)NC(=O)[C@H](CCCNC(=N)N)NC(=O)[C@@H](N)CCCNC(=N)N)C(=O)N[C@@H](C)C(=O)NCC(=O)N[C@H](C(=O)N1CCC[C@H]1C(=O)NCC(=O)N[C@@H](CCCNC(=N)N)C(=O)N[C@@H](CCCCN)C(=O)O)[C@@H](C)CC", "organism": "Gram-positive and Gram-negative bacteria", "setting": "range over ten strains", "endpoint": "MIC", "value": "> 50 µM"}
{"Compound": "CC1(C)SC2C(NC(=O)C(NC(=O)C3=C(O)C(Cc4ccc(O)cc4)NC3=O)c3ccccc3)C(=O)N2C1C(=O)O (stereo not shown)", "organism": "Escherichia coli", "assay": "broth microdilution", "test system": "Keio mutant JW0146-2", "setting": "18 h, ferric hydroxamate uptake gene", "endpoint": "MIC", "value": "50 µg/mL"}
{"Compound": "C[C@@H](O)[C@H](NC(=O)[C@H](Cc1ccccc1)NC(=O)[C@H](Cc1c[nH]c2ccccc12)NC(=O)[C@H](Cc1ccccc1)NC(=O)[C@@H](NC(=O)[C@H](Cc1ccccc1)NC(=O)[C@H](CCCNC(=N)N)NC(=O)[C@@H](N)CCCNC(=N)N)[C@@H](C)O)C(=O)N[C@@H](Cc1ccccc1)C(=O)N[C@@H](CCCNC(=N)N)C(=O)N[C@@H](CCCNC(=N)N)C(N)=O", "organism": "Lacticaseibacillus rhamnosus", "test system": "1.038, probiotic strain", "setting": "24 h, 37 °C, tested up to 128 µM", "endpoint": "MIC", "value": "8 µM"}
{"Compound": "CC1(C)SC2C(NC(=O)C(NC(=O)C3=C(O)C4(CC4)NC3=O)c3ccccc3)C(=O)N2C1C(=O)O (stereo not shown)", "organism": "Escherichia coli", "assay": "broth microdilution", "test system": "Keio mutant JW2142-1", "endpoint": "MIC", "value": "50 µg/mL"}
{"Compound": "CC(C)C[C@H](NC(=O)[C@H](CCCNC(=N)N)NC(=O)[C@H](Cc1c[nH]c2ccccc12)NC(=O)[C@H](CCCNC(=N)N)NC(=O)[C@H](Cc1c[nH]c2ccccc12)NC(=O)[C@H](Cc1c[nH]c2ccccc12)NC(=O)[C@H](Cc1c[nH]c2ccccc12)NC(=O)[C@H](CCCNC(=N)N)NC(=O)[C@H](Cc1c[nH]c2ccccc12)NC(=O)[C@H](CCCNC(=N)N)NC(=O)CN)C(N)=O", "organism": "Candida albicans", "assay": "broth microdilution", "test system": "CGMCC 2.209, RPMI 1640-MOPS", "setting": "48 h, 30 °C, with: ZnCl2 8 µM", "endpoint": "MIC", "value": "32 µM"}
{"note": "Excerpt of the above:"}
{"Compound": "C[C@H](NC(=O)[C@H](CCCNC(=N)N)NC(=O)[C@H](Cc1c[nH]c2ccccc12)NC(=O)[C@H](CCCNC(=N)N)NC(=O)[C@H](Cc1c[nH]c2ccccc12)NC(=O)[C@H](Cc1c[nH]c2ccccc12)NC(=O)[C@H](Cc1c[nH]c2ccccc12)NC(=O)[C@H](CCCNC(=N)N)NC(=O)[C@H](Cc1c[nH]c2ccccc12)NC(=O)[C@H](CCCNC(=N)N)NC(=O)CN)C(N)=O", "organism": "Candida albicans", "assay": "broth microdilution", "test system": "SP3903, RPMI 1640-MOPS", "setting": "48 h, 30 °C", "endpoint": "MIC", "value": "8 µM"}
{"Compound": "C[C@@H](O)[C@H](NC(=O)[C@H](Cc1ccccc1)NC(=O)[C@H](Cc1c[nH]c2ccccc12)NC(=O)[C@H](Cc1ccccc1)NC(=O)[C@@H](NC(=O)[C@H](Cc1ccccc1)NC(=O)[C@H](CCCNC(=N)N)NC(=O)[C@@H](N)CCCNC(=N)N)[C@@H](C)O)C(=O)N[C@@H](Cc1ccccc1)C(=O)N[C@@H](CCCNC(=N)N)C(=O)N[C@@H](CCCNC(=N)N)C(N)=O", "organism": "Lacticaseibacillus rhamnosus", "test system": "1.038, probiotic strain", "setting": "24 h, 37 °C, tested up to 128 µM", "endpoint": "MIC", "value": "8 µM"}
{"Compound": "CC1(C)SC2C(NC(=O)C(NC(=O)C3=C(O)C(Cc4ccccc4)NC3=O)c3ccccc3)C(=O)N2C1C(=O)O (stereo not shown)", "organism": "Escherichia coli", "assay": "broth microdilution", "test system": "isolate IU 356 A, KPC-3, VIM-1, TEM", "setting": "no clavulanic acid", "endpoint": "MIC", "value": "> 200 µg/mL"}
